Results from different studies.
Each numbered part is a random draw from the data of one study; scales do not carry over between parts. Positions count from the first letter of the parent shown.
Sequence of UniProt P61075 (whole entry, looked up): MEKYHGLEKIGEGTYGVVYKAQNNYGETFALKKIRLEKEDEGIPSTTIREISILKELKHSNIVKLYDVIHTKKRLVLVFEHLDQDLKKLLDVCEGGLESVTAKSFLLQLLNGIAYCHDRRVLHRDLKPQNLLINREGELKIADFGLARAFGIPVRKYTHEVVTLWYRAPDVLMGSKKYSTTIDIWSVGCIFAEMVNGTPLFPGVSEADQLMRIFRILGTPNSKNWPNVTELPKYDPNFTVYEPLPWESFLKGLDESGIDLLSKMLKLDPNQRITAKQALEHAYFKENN

Sample 1 — method: protein-binding microarray; molecule type: double-stranded DNA, one strand shown; matrix: in vitro; tested at: 2200 nM top; setting: 60-bp whole probe; added: salmon DNA 0.4 mg/ml; reference: random background probes; direction: higher = stronger binding; measurement: fitted relative affinity; all sequences stand within: GCCTAGCAC … GTCTTGATTCGCTTGACGCTGCTG
Target: Interferon regulatory factor 7, full length, phosphomimetic (IRF7, Homo sapiens, UniProt Q92985, residues 1-503, S471D/S472D/S475D/S476D/S477D/S483D/S484D/S487D)
Construct (chain): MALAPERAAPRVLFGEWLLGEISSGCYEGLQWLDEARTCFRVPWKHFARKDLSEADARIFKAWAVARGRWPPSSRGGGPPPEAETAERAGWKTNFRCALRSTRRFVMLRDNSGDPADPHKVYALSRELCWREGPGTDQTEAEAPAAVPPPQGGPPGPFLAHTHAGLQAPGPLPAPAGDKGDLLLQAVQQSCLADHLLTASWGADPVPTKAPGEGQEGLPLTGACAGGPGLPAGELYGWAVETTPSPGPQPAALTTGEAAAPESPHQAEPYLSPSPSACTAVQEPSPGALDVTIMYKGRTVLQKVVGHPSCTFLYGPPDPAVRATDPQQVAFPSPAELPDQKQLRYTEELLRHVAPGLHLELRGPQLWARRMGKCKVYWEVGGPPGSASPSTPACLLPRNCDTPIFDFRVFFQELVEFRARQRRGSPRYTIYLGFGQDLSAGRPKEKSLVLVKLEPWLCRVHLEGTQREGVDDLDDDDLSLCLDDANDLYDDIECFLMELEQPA
TTAGGTTTCCTTCTCCGTTAGTGCTAG: 2.52 z-score
GACGGTTGCGGTCTCGGGACGTGCTAG: 0.158 z-score
TCACATCTCTGTCCGTGACTGTGCTAG: 2.27 z-score
TTAGATCTCAGACTGGTTTAGTGCTAG: 0.111 z-score
TTTGGTCTCGGACTGGGTTAGTGCTAG: 0.446 z-score
GACGATTTCGACTTTCGGGACGTGCTA: 5.7 z-score
GACGATAGCAGACTGGAGACGTGCTAG: -0.234 z-score
GAGGGTTTCCTTTCCCTGACGTGCTAG: 2.33 z-score

Sample 2 — method: protein-binding microarray; molecule type: hairpin DNA; matrix: in vitro; tested at: not given; reference: not given; direction: higher = stronger binding; measurement: median fluorescence
Target: Cyclic AMP-responsive element-binding protein 1, full length (CREB1, Homo sapiens, UniProt P16220, residues 1-327)
Sequence of UniProt P16220 (whole entry, looked up): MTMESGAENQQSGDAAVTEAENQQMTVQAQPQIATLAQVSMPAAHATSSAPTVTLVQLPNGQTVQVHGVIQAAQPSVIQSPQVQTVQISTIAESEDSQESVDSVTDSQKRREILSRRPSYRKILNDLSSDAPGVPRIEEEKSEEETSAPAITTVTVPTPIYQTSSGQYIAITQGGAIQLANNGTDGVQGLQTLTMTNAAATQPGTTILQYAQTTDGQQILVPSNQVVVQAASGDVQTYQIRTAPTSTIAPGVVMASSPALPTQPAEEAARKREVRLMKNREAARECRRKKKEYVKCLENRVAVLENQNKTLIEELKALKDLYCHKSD
Setting: whole hairpin DNA, median over replicate spots
GAGGCCGGCGGACGTCAGCCTCCTGGCTGACGTCCGCCGGCCTCACACTC: 4310 a.u.
GAGGCCCGATGACGTCAGCCTCCTGGCTGACGTCATCGGGCCTCACACTC (5mC at 7): 29500 a.u.
GAGGCCGGCTGACCGCAGCCTCCTGGCTGCGGTCAGCCGGCCTCACACTC (5mC at 30): 2730 a.u.
GAGGCCGACGACGACGTGCCTCCTGGCACGTCGTCGTCGGCCTCACACTC (5mC at 9 15 29 35): 3390 a.u.
GAGGCCGGCTGCCGTCAGCCTCCTGGCTGACGGCAGCCGGCCTCACACTC: 2960 a.u.
GAGGCCGGATGACGTCAGCCTCCTGGCTGACGTCATCCGGCCTCACACTC (5mC at 31): 7920 a.u.
GAGGCCGACGACGTCGGGCCTCCTGGCCCGACGTCGTCGGCCTCACACTC (5mC at 9 15 28 29 35): 3740 a.u.
GAGGCCGGGTGACGTCAGCCTCCTGGCTGACGTCACCCGGCCTCACACTC: 18700 a.u.

Sample 3 — target: CCNF, cyclin fold, Cln2 fusion (human); method: yeast growth competition, sequencing; matrix: yeast; setting: strong parent motif; reference: not given; direction: higher = stronger binding; measurement: normalised enrichment score; starting sequence: viral docking peptide; KGVKRKLFAEDSS
KCVKRKLFAEDSS [G2C]: 8.26
KGVKRKLAAEDSS [F8A]: 1.51
KGVKRKLYAEDSS [F8Y]: 6.33
KGVKRKLFAMDSS [E10M]: 7.54
KGVKRKLFREDSS [A9R]: 8.12
KGVKRKLFSEDSS [A9S]: 7.73
KGSKRKLFAEDSS [V3S]: 3.03
KGVKRKGFAEDSS [L7G]: 0.221
KGCKRKLFAEDSS [V3C]: 7.08
KGVKRKVFAEDSS [L7V]: 0.891
KGVKCKLFAEDSS [R5C]: 2.16
KGVIRKLFAEDSS [K4I]: 8.21
KGVKLKLFAEDSS [R5L]: 0.547
KGVKRKPFAEDSS [L7P]: 0.391
KGVKRKLFAEVSS [D11V]: 8.09
KGVKRKNFAEDSS [L7N]: 0.332
KGVKRKLFAEASS [D11A]: 7.73
KLVKRKLFAEDSS [G2L]: 7.69
KGVTRKLFAEDSS [K4T]: 6.07
KGVKRKLFAADSS [E10A]: 7.77
KSVKRKLFAEDSS [G2S]: 8.19
KGVKRKLTAEDSS [F8T]: 0.468
KGVKRELFAEDSS [K6E]: 6.9
KDVKRKLFAEDSS [G2D]: 7.82
KGVKRKLFAEDQS [S12Q]: 7.28

Sample 4 — method: universal PBM; molecule type: double-stranded DNA, one strand shown; matrix: in vitro; tested at: not given; direction: higher = stronger binding; measurement: E-score
Target: Sal-like protein 4, full length isoform B (SALL4, Homo sapiens, UniProt Q9UJQ4-2, residues 1-616)
Setting: 8-mer, flanks averaged, mean of replicates
AGCCCCCA: -0.252
ATAATCTC: 0.25
CGGGTTGA: -0.264
AGCTATGA: 0.164
TGCAACAA: 0.202
GACGGCGC: -0.252
AAGTACCT: 0.0667
CCCATTTA: 0.108

Further values, each from its own experiment
Nc1c(C(=O)NCc2ccc(C(=O)NCCCC3CCCCC3)cc2)cnn1-c1ccccc1  remaining binding (Cyclin-dependent kinase 2 homolog (CRK2, Plasmodium falciparum, UniProt P61075); cell-free assay, competition with immobilised ligand; 0.1 µM): 100%

For quick reference, copied from above (sample 3):
KGVKRKLTAEDSS [F8T]: 0.468
KGVKRELFAEDSS [K6E]: 6.9
KGVKRKLYAEDSS [F8Y]: 6.33
KGVTRKLFAEDSS [K4T]: 6.07
KGVIRKLFAEDSS [K4I]: 8.21
KGVKRKNFAEDSS [L7N]: 0.332
